# Assay results from different studies.
# A part holds a random share of what one study measured.

# Set 1 — method: RNA Bind-n-Seq; form: RNA; sample: in vitro; tested at: 365 nM; reference: no-protein control; reading: higher = stronger binding
# Target: RNA binding protein fox-1 homolog 2, RRM domain, GST-SBP tag (RBFOX2, Homo sapiens, UniProt O43251-10, residues 100-194)
# Setting: natural RNA segment, single round, ends assumed
# All sequences stand within: GGGAGUUCUACAGUCCGACGAUC … UGGAAUUCUCGGGUGCCAA
# Residues (chain): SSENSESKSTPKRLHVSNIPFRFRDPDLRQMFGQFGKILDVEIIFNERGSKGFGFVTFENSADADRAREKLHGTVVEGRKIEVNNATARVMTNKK
Oligonucleotide,RBNS enrichment (R)
AGCUGUGAAAUAAACUCUCCCCAAGGAUGCCAUCUGAUCUCCCCAUCUGCAGCCAGAAGUCACCCCAAUACAGUACUUCUAAGGAGGGGUCAGGUAAAGCAUGAGAGAGA,5.18
AGAGUUAAGGUCUUAAAAUGUAUUUUGUCCUAAAUAAACUGCGUUUGGUAAACCUUGGCUGGCAAGAGUUCUGGCUCUCACCCAGUAUUUCCUGGUAUUUGUUUUAAAGU,0.443
GCCACAUUCUCCCAGAAGAGACAGCCACAGAUAGACUGGAACUCUCUGGCAUGUGAGUGCAUAUGUGUGACUGCCCCACUGUGGGACCUGCCACAUCCCUCCAUCCAUGU,0.411
AUCAUUUCCCAUCCCGCUGUGUCUCUGGGUCUCCCUCCUCCCCAUCUCCACCCCCCAAGAGCCAUUGAGUGAGGUGCUUUUAGCCCUUUUGACUAAUUAGAAAUUCAGGC,0.671
AACAAGUAGCAUACAUUUUGUAAUUAACAUUGAUAAACACUGUGAUUUUUUUGGUUAAGACUUUUUCAUUGAUCUGAAUUGCUUAAAUUGCAUAUAUUGUAAAAUAGGAU,0.519
UUUAUCUCUUCUAAACUGUGUUUAUAUUGCUCUGGGUCCAACAACACUAAAUCAUAGUUUAACACAGGAAUCAAAAUGGAAGCCACGGGGAGCAUAGCAUGUGGGUUUCU,2.55
GCAUGUGGGUUAGACCAGGUUAGACCAAUAAAAAGCUAUGUCUUUACUUUAUGGCAUGUGCUUUUCUCCACCGGAGGAGAGAGAGGCAAGUGUCUCCCUCAGCUUGUGUC,24.5
UGGCAUUUUUCUCUAGCGUUGUGGUGCCACCUUCCCUUCUUGUCCCAAGGUUAUAAGGCCUUGUCUUUCUCUUUGGAAUCAUAAAGUGGAACAGAGUCCCCAGAACUCAU,0.26
UGCACGCACUGCGUAGAGCCUGGAAGGGAAGUGAGAAACCAGCCGACCGGCCCUGCCCCUCUUCCCGGGAUCACUUAAUGAACCACGUGUUUUGACAUCAUGUAAACCUA,0.272
AAUCUCUAUGUAUAUUCUAUUUUAUUAAAUUAAUUGAAUCUAGUAUAUGCUGGAUGUACGACAUUUUGUGACUGAAGAGACUUGGUUCCUUCUUCUUUUAUGUGUCUCAG,0.538
UACACAUUUCCCCCAGGGACCCUGUCUUACGAUGCUUUUCUACGUCAAUGCAAUUGUGGCCAUCUGGCCACAAGCUCCAAGGGACUUACAAGCUCAAGGGCCAGAGCCCA,0.241
ACACUCACCUGCUCCCUUUCGUUCCGCUUGUCUUGGCAGUUGACAAGACAUUCGUUUGCUUUAGUGAAACUCCCUCGCUCCAGCCUCUCUAAGUAGCUCUUCCCGCUGUG,0.783

# Set 2 — method: competition protein-binding microarray; form: double-stranded DNA, one strand shown; sample: in vitro; tested at: 2 µM; with: Cbf1 competitor, 0.05 µM; reading: higher = stronger binding; all sequences stand within: … GTCTTGATTCGCTTGACGCTGCTG
# Target: Phosphate system positive regulatory protein PHO4, full length, GST-tagged (PHO4, Saccharomyces cerevisiae, UniProt P07270, residues 1-312)
# Setting: whole 60-bp probe, lowest competitor level
# Construct (chain): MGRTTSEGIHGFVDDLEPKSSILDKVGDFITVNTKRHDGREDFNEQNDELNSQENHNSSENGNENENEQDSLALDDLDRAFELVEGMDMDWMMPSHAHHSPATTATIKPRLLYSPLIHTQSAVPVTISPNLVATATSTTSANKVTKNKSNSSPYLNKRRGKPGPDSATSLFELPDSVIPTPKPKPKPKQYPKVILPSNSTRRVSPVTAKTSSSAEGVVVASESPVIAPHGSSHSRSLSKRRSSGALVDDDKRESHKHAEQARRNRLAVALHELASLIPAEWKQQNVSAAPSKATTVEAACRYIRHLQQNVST
Oligonucleotide,fluorescence intensity [a.u.]
ATTAAGTCTCTTCATCCCGTGTACTATTACCCGACA,6130
GTTAAAAATTATCCTCAGGTGATGTTTTGGTAGAAG,3830
TTGAGCACTTGAGTATACGTGATGGAGCACACAAAG,5190
AATATAACTCAACAAAACGTGACGGAAAATCAAATG,12700
TGCGCAACAACTTGTCACTTAACTTTATGTCTAGAA,2720
AAAGCGGTAATTTGTCACGGAACTTCACATATCTAT,3670
CGGGGTTAAGTTTTTCACGTGCTTTGCTTGCAGCAG,14700
CTAACGAAGGTTTTTCACGTGGCATACAAGCCAAGT,13300
AATCCCTTATCCCGTCACGTGAATTAAACTTCGGGT,13200
AACGACACCGGCACCTTCGTGACGGCCAACTAATGG,5280
CGGGGTTAAGTTTGGCATGTGGGTGGCTTGCAGCAG,11900
TGCGGGCGCGCTTTTCACGTTTTGATTAGCAACAGG,7710
CTTCGGTAGCCGAGCCTCGTCTGTGTGTGTGGGAAT,5040
TCGGTCCCCTCATAAAATTATATATAAATGGGTTAG,2790
CAGAAAGAATAGCGCCTCGTGGAATCTTGGCACCCA,9830
CTAACATCGTCCGCGCAGGTGACGCCTCCCGCGCTG,5620

# Set 3 — method: universal PBM; form: double-stranded DNA, one strand shown; sample: in vitro; tested at: 600 nM; reading: higher = stronger binding
# Target: Sal-like protein 4, full length isoform A (SALL4, Homo sapiens, UniProt Q9UJQ4, residues 1-1053)
# Sequence of UniProt Q9UJQ4 (whole entry, looked up): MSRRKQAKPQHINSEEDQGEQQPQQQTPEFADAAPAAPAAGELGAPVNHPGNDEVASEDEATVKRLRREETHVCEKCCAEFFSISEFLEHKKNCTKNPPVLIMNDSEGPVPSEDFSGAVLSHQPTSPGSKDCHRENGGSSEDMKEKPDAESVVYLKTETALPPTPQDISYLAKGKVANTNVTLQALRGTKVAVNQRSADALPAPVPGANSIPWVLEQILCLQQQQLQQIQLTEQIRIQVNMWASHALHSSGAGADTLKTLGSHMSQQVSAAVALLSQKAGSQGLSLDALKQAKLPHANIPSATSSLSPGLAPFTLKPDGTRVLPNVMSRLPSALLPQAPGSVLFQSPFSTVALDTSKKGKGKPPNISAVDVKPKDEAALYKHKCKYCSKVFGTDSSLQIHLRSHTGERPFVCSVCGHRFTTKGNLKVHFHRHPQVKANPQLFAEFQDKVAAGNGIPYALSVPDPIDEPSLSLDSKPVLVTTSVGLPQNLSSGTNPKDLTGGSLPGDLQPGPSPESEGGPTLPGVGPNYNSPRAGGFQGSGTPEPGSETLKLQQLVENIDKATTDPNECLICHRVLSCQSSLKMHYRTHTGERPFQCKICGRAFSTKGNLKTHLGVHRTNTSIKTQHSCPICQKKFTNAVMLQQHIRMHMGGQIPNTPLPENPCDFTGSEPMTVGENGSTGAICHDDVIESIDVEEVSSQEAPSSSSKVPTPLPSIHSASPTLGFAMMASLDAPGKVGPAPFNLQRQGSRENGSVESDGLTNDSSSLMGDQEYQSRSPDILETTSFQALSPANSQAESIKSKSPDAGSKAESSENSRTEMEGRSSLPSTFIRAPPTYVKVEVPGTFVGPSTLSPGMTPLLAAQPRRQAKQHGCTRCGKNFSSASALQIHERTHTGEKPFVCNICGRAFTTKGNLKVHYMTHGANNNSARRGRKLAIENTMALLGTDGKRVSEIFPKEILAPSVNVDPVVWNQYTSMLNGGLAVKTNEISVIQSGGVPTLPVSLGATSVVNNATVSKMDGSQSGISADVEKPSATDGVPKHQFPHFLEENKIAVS
# Setting: 8-mer, flanks averaged, mean of replicates
Oligonucleotide,E-score
ACGCGGGA,-0.126
TATTAGGA,0.318
CATTGCTA,0.178
GGAAGAAA,0.143
CAGCCGAA,-0.2
CCCTTGAA,-0.0423
AGAGCGAC,-0.171
GTAGCAAA,0.1
AGAATAAT,0.248
CGTAGTTC,-0.161
ACATTCCC,0.0821
CTTATTAA,0.372
GGGCCGGA,-0.37
GAGCAAAA,0.0055
CCTTAAAC,-0.0452
CCAGCATC,-0.303
CTGATTAC,0.12
CATAGCAA,0.168

# Single results of other studies
Molecule,target,assay,test system,setting,how to read,quantity,value
"PhoQ, residues 284 288 289 292 302 303 STVVAA","PhoP, residues 12 14 15 18 19 LHHYF (Escherichia coli, UniProt P23836)","Sort-seq, item: YFP reporter",E. coli,"PhoQ-PhoP variant library, with: 10 µM Mg2+","reference: high Mg2+ state, higher = stronger signaling",fold induction,42.7
